{"data": "Experimental data pooled from the literature", "cell line": "HEK293", "note": "Lines come from different studies, so protocols differ."}
{"Compound": "COc1ccc2c(c1)C1CC(C)(N2)c2c(C)nc3ccc(OC)cc3c21 (centres unmarked)", "how to read": "reference: HEK293 CC50 over parasite IC50", "endpoint": "selectivity index", "value": "> 100 fold"}
{"Compound": "Cc1nn(-c2ccccc2)c(O)c1C(c1ccc(N(C)C)cc1)c1c(C)nn(-c2ccccc2)c1O", "assay": "cell growth or viability, MTT", "setting": "48 h", "endpoint": "IC50", "value": "> 40 µM"}
{"Compound": "O=C(O)c1ccc(-n2cc(/C=N/Nc3cccc(Cl)c3F)c(-c3ccc4ccccc4c3)n2)cc1", "setting": "up to", "how to read": "reference: HEK293 IC50 over MIC", "endpoint": "selectivity ratio", "value": "≤ 48.7"}
{"Compound": "CCCCCCCC(=O)SCCC=CC1CC(=O)NCc2nc(cs2)C2=NC(C)(CS2)C(=O)NC(C(C)C)C(=O)O1 (centres unmarked)", "assay": "cell growth or viability", "endpoint": "GI50", "value": "> 10 µM"}
{"Compound": "CC(=O)[C@@H]1CCCN1C(=O)[C@@H]1CCCN1C(=O)[C@H](Cc1ccccc1)NC(=O)[C@@H](NC(=O)[C@@H](NC(=O)[C@@H](NC(=O)[C@@H]1CCCN1C(=O)[C@H](C)NC(=O)OC(C)(C)C)C(C)C)C(C)C)C(C)C", "assay": "cell growth or viability, SRB", "endpoint": "IC50", "value": "362 µM"}
{"Compound": "COc1ccc2cc1Oc1cc3c(cc1OC)CCN(C)C3Cc1ccc(cc1)Oc1c(O)c(OC)cc3c1C(C2)N(C)CC3 (centres unmarked)", "how to read": "reference: CC50 HEK293 over INDO IC50", "endpoint": "selectivity index", "value": 90.8}
{"Compound": "COc1ccc(C(c2c(C)nn(-c3ccccc3)c2O)c2c(C)nn(-c3ccccc3)c2O)cc1", "assay": "cell growth or viability, MTT", "setting": "48 h", "endpoint": "IC50", "value": "> 40 µM"}
{"Compound": "CC(C)C[C@@H](NC(=O)CCNc1ccc([N+](=O)[O-])c2nonc12)C(=O)N[C@H](CC(C)C)C(=O)N[C@H](CC(C)C)C(=O)N[C@H](CC(C)C)C(=O)N[C@H](Cc1ccc(OP(=O)(O)O)cc1)C(=O)O", "assay": "MTT", "setting": "200 µM, 24 h", "endpoint": "viability", "value": "> 60%"}
{"Compound": "COc1cc2c3cc1Oc1cc(ccc1O)CC1c4c(cc(OC)c(O)c4Oc4ccc(cc4)CC3N(C)CC2)CCN1C (centres unmarked)", "how to read": "reference: HEK293 CC50 over parasite IC50", "endpoint": "selectivity index", "value": "> 100 fold"}
{"Compound": "CC[C@H](C)[C@H](NC(=O)CNC(=O)[C@H](CCCCN)NC(=O)[C@H](CO)NC(=O)[C@H](CCCCN)NC(=O)CNC(=O)[C@H](CC(=O)O)NC(=O)[C@H](CCCCN)NC(=O)[C@H](CO)NC(=O)[C@@H](NC(=O)[C@H](CC(C)C)NC(=O)[C@H](CCCNC(=N)N)NC(=O)[C@@H](NC(=O)[C@H](CCC(=O)O)NC(=O)[C@H](C)NC(=O)[C@H](CCCNC(=N)N)NC(=O)[C@H](CCCNC(=N)N)NC(=O)[C@H](CCCNC(=N)N)NC(=O)[C@H](CCC(N)=O)NC(=O)[C@H](CCCNC(=N)N)NC(=O)[C@H](CCCNC(=N)N)NC(=O)[C@H](CCCCN)NC(=O)[C@H](CCCCN)NC(=O)[C@H](CCCNC(=N)N)NC(=O)CNC(=O)[C@@H](N)Cc1ccc(O)cc1)[C@@H](C)CC)C(C)C)C(=O)N[C@@H](C)C(=O)N[C@@H](Cc1ccc(O)cc1)C(=O)N[C@H](C(=O)N[C@@H](CCC(=O)O)C(=O)N[C@@H](Cc1ccccc1)C(=O)N[C@@H](CCCCN)C(=O)O)[C@@H](C)CC", "assay": "RT-PCR, refers to: HBB", "setting": "concentration not given", "endpoint": "mRNA level", "value": "no effect"}
{"Compound": "Cc1nn(-c2ccccc2)c(O)c1C(c1ccc(F)cc1)c1c(C)nn(-c2ccccc2)c1O", "assay": "cell growth or viability, MTT", "setting": "48 h", "endpoint": "IC50", "value": "> 40 µM"}
{"Compound": "CC(C)C[C@H](NC(=O)[C@@H](CCCCN)NC(=O)[C@H](Cc1c[nH]cn1)NC(=O)[C@H](CO)NC(=O)[C@H](Cc1c[nH]c2ccccc12)NC(=O)[C@H](Cc1c[nH]cn1)NC(=O)[C@@H]1CCC(=O)N1)C(=O)N[C@@H](CCCNC(=N)N)C(=O)N1CCC[C@H]1C(=O)NCC(N)=O", "assay": "cell growth or viability, SRB", "endpoint": "IC50", "value": "0.0248 µM"}
{"Compound": "C#CCCCC[C@H](C)C[C@@H](C)C(=O)N(C)[C@H](C(=O)N(C)[C@@H](Cc1ccccc1)C(=O)N1CCC[C@H]1C(=O)N1CCC[C@H]1C(C)=O)C(C)C", "assay": "cell growth or viability, SRB", "endpoint": "IC50", "value": "5760 µM"}
{"Compound": "Cc1nn(-c2ccccc2)c(O)c1C(c1ccccc1O)c1c(C)nn(-c2ccccc2)c1O", "assay": "cell growth or viability, MTT", "setting": "48 h", "endpoint": "IC50", "value": "> 40 µM"}
